Measured values from different studies.
Numbers after ± are the reported error.

COc1cc(C(=O)c2nc(-c3cccc4[nH]ccc34)cs2)cc(OC)c1OC — IC50 (PC-3/TxR paclitaxel-resistant; cell growth, MTS; 72 h): 3.4 ± 0.5 nM
COc1cc(N2CCC(N3CCN(C)CC3)CC2)ccc1Nc1ncc(Cl)c(Nc2ccccc2S(=O)(=O)C(C)C)n1 — IC50 (Rh28 (alveolar rhabdomyosarcoma); cell growth; 3 days): 80 ± 20 nM
Nc1ccn([C@@H]2O[C@H](CO)[C@@H](O)C2(F)F)c(=O)n1 — IC50 (SW1990; cell viability, MTT; mutant KRAS spleen metastasis): 6 nM
CC[C@H](C)[C@@H]1NC(=O)[C@H](Cc2ccc(-c3ccccc3)cc2)NC(=O)[C@H](CC(C)C)NC(=O)[C@@H]2[C@@H](c3ccccc3)CCN2C(=O)[C@H](NC(=O)[C@@H](CCCNC(=N)N)NC(=O)[C@@H](CCCNC(=N)N)NC(=O)[C@H](CCCCN=[N+]=[N-])NC(C)=O)CSCSC[C@@H](C(=O)N[C@H](CCCNC(=N)N)C(=O)N[C@H](CCCNC(=N)N)C(N)=O)NC(=O)[C@H](C(C)C)NC(=O)[C@@H]2CCCN2C(=O)[C@H](CC(=O)O)NC(=O)[C@H](Cc2ccc(O)cc2)NC(=O)[C@](C)(CO)NC1=O — IC50 (AsPC-1; AlphaScreen, refers to: pERK; 2 h): 6000 nM
CCc1nc(C(N)=O)c(Nc2ccc(N3CCC(N4CCN(C(=O)C5CCN(c6ccc(S(=O)(=O)NC(=O)c7ccc(N8CCN(CC9=C(c%10ccc(Cl)cc%10)CC(C)(C)CC9)CC8)cc7Oc7cnc8[nH]ccc8c7)cc6[N+](=O)[O-])CC5)CC4)CC3)c(OC)c2)nc1NC1CCOCC1 — IC50 (MV4-11 BCL-2 overexpressing, venetoclax-resistant; cell viability, alamarBlue; 48 h): > 10000 nM
CC1(C)CCC(CN2CCN(c3ccc(C(=O)NS(=O)(=O)c4ccc(NCC5CCOCC5)c([N+](=O)[O-])c4)c(Oc4cnc5[nH]ccc5c4)c3)CC2)=C(c2ccc(Cl)cc2)C1 — IC50 (CD56+ NK cells from AML patients; cell viability, high-throughput flow cytometry): 5.73 nM
CC[C@@H](C)[C@H]1NC(=O)[C@H](Cc2ccc(-c3ccccc3)cc2)NC(=O)[C@H](CC(C)C)NC(=O)[C@@H]2[C@@H](c3ccccc3)CCN2C(=O)[C@H](NC(=O)[C@@H](CCCNC(=N)N)NC(=O)[C@@H](CCCNC(=N)N)NC(C)=O)CSCSC[C@@H](C(=O)N[C@H](CCCNC(=N)N)C(=O)N[C@H](CCCNC(=N)N)C(N)=O)NC(=O)[C@H](C(C)C)NC(=O)[C@@H]2CCCN2C(=O)[C@H](CC(=O)O)NC(=O)[C@H](Cc2ccc(O)cc2)NC(=O)[C@@](C)(CO)NC1=O — IC50 (AsPC-1; AlphaScreen, refers to: pERK; 18 h): > 50000 nM
NCCOCCCN1CCN(c2ccc(-c3cncc(Cl)c3N3CCC4(CCNC4=O)CC3)cc2)CC1 — IC50 (7dF3; WNT reporter gene, inhibitor): 7 ± 3 nM
CO[C@H]1[C@H](O[C@H]([C@H]2O[C@@H](n3ccc(=O)[nH]c3=O)[C@H](O)[C@@H]2O)[C@H](NCCCNC(=O)[C@@H](NC(=O)[C@@H](NC(=O)N[C@H](C(=O)O)C(C)C)[C@@H]2CCN=C(N)N2)[C@@H](OC(=O)CCCCCCCCCCCCN(O)C(=N)N)C(C)C)C(=O)O)O[C@H](CN)[C@H]1O — IC50 (breast cancer cell lines; cell viability, WST-1; range over panel): 590 to 980 nM
CC[C@H](C)[C@@H]1NC(=O)[C@H](Cc2ccc(-c3ccccc3)cc2)NC(=O)[C@H](CC(C)C)NC(=O)[C@@H]2[C@@H](c3ccccc3)CCN2C(=O)[C@H](NC(=O)[C@H](CCCNC(=N)N)NC(=O)[C@H](CCCNC(=N)N)NC(C)=O)CSCSC[C@@H](C(=O)N[C@@H](CCCNC(=N)N)C(=O)N[C@@H](CCCNC(=N)N)C(N)=O)NC(=O)[C@H](C(C)C)NC(=O)[C@@H]2CCCN2C(=O)[C@H](CC(=O)O)NC(=O)[C@H](Cc2ccc(O)cc2)NC(=O)[C@H](CO)NC1=O — IC50 (AsPC-1; AlphaScreen, refers to: pERK; 2 h): 3000 nM
COc1cc([C@@H]2c3cc4c(cc3[C@@H](O[C@@H]3O[C@@H]5CO[C@@H](C)O[C@H]5[C@H](O)[C@H]3O)[C@H]3COC(=O)[C@H]23)OCO4)cc(OC)c1O — IC50 (untransduced HeLa; CellTiter-Glo; 48 h): 2400 ± 300 nM
CC(C)c1cccc(C(C)C)c1-n1c(Cl)c(Cl)n(-c2c(C(C)C)cccc2C(C)C)c1=[Se] — IC50 (H157 lung carcinoma cells; cell viability, MTT; 72 h): > 10000 nM
CCCCN1C[C@H](O)[C@@H](O)[C@@H](O)[C@H]1CO — IC50 (sample E patient fibroblasts; GlcCer level lowering, LC-MS/MS, refers to: GlcCer d18:1/16:0; 216 h): 22200 nM
CC(=O)c1ccc(-c2cccc(NC(=O)CCc3cccc4c3B(O)OC4)c2)cc1 — IC50 (HCT-116 parental; cell viability, CellTiter-Glo): 170 nM
CCCCN1C[C@H](O)[C@@H](O)[C@H](O)[C@H]1CO — IC50 (Sandhoff disease patient fibroblasts; glycosphingolipid lowering, LC-MS/MS, refers to: Gb3 d18:0/16:0; human): 2800 nM
CCCN1CCN(c2cccc(-c3cnccc3N3CCCC4(CCNC4=O)C3)c2)CC1 (centres unmarked) — IC50 (7dF3; WNT reporter gene, inhibitor): > 5000 nM
Cc1cccc(-c2[nH]c(CNc3ccccc3F)nc2-c2ccc3ncnn3c2)n1 — IC50 (MM1.S, pomalidomide-resistant; cell viability, XTT): ~1500 nM
CCCCCN1C[C@H](O)[C@@H](O)[C@H](O)[C@@H]1CO — IC50 (Sandhoff disease patient fibroblasts; glycosphingolipid lowering, LC-MS/MS, refers to: GM3 d18:1/18:0; human): 388 nM
CCCc1cc(-c2nc(-c3ccc(C)cc3)cs2)ccn1 — IC50 (NKM-1; cell viability; 72 h): 7340 ± 580 nM
COc1cc2c(Oc3ccc(NC(=O)C4(C(=O)Nc5ccc(F)cc5)CC4)cc3F)ccnc2cc1OCCCN1CCOCC1 — IC50 (Rh28 (alveolar rhabdomyosarcoma); cell growth; 3 days): 480 ± 150 nM
Cc1c(C)n(-c2c(C(C)C)cccc2C(C)C)c(=[Se])n1-c1c(C(C)C)cccc1C(C)C — IC50 (H157 lung carcinoma cells; cell viability, MTT; 72 h): > 10000 nM
COc1ccc(F)cc1C(=O)NCc1ccc(-c2nn([C@@H](C)C(F)(F)F)c(N)c2C(N)=O)cc1 — IC50 (Rec1; refers to: IL-10; 24 h): 3.2 ± 0.9 nM
C[C@H]1[C@H](OC(=O)CCC(=O)O)O[C@@H]2O[C@@]3(C)CC[C@H]4[C@H](C)CC[C@@H]1[C@@]24OO3 — IC50 (primary AML blasts, FLT3-ITD; cell viability; 96 h, MSC co-culture, range over samples): 700 to 31800 nM

Excerpt of the above:
COc1cc([C@@H]2c3cc4c(cc3[C@@H](O[C@@H]3O[C@@H]5CO[C@@H](C)O[C@H]5[C@H](O)[C@H]3O)[C@H]3COC(=O)[C@H]23)OCO4)cc(OC)c1O — IC50 (untransduced HeLa; CellTiter-Glo; 48 h): 2400 ± 300 nM
CC(C)c1cccc(C(C)C)c1-n1c(Cl)c(Cl)n(-c2c(C(C)C)cccc2C(C)C)c1=[Se] — IC50 (H157 lung carcinoma cells; cell viability, MTT; 72 h): > 10000 nM
CCCCN1C[C@H](O)[C@@H](O)[C@@H](O)[C@H]1CO — IC50 (sample E patient fibroblasts; GlcCer level lowering, LC-MS/MS, refers to: GlcCer d18:1/16:0; 216 h): 22200 nM
CC(=O)c1ccc(-c2cccc(NC(=O)CCc3cccc4c3B(O)OC4)c2)cc1 — IC50 (HCT-116 parental; cell viability, CellTiter-Glo): 170 nM
